Measured values collected from several papers.
Lines come from different studies, so protocols differ. Numbers after ± are the reported error. ≈ marks a conversion by molar mass, not a printed value.

Structure (SMILES)	tested on	assay	system	conditions	endpoint	result
Cc1cc(/C=C/C#N)cc(C)c1-n1cnc2cnc(Nc3ccc(C#N)cc3)nc21	HIV-1	viral replication, single-round infection	RT mutant V106A/G190A/F227L		EC50	2.2 ± 1.2 nM
CSCC[C@@H]1NC(=O)CNC(=O)[C@H](CCC(=O)O)NC(=O)[C@@H]2CSSC[C@H](NC(=O)[C@@H](N)Cc3ccc(O)cc3)C(=O)N[C@@H](CCC(N)=O)C(=O)N[C@@H](CCCCN)C(=O)N[C@@H](Cc3c[nH]c4ccccc34)C(=O)N[C@@H](CCSC)C(=O)N[C@@H](Cc3c[nH]c4ccccc34)C(=O)N[C@@H]([C@@H](C)O)C(=O)N[C@H]3CSSC[C@H](NC(=O)[C@H](C(C)C)NC1=O)C(=O)N[C@@H](CCCNC(=N)N)C(=O)N[C@@H](CC(C)C)C(=O)N[C@@H](Cc1c[nH]c4ccccc14)C(=O)N[C@H](C(=O)N[C@@H](CCCCN)C(=O)N[C@@H](CCCCN)C(=O)N[C@@H](CCCCN)C(=O)N[C@@H](CC(C)C)C(=O)N[C@@H](Cc1c[nH]c4ccccc14)C(=O)O)CSSC[C@H](NC(=O)[C@H](CCCCN)NC(=O)[C@H](CCCNC(=N)N)NC(=O)[C@H](CCC(=O)O)NC(=O)[C@H](CO)NC(=O)[C@H](CC(=O)O)NC3=O)C(=O)N2	ND7/23	peak TTX-sensitive sodium current		0.001 µM, 2 peak	inhibition	6 ± 7%
CC[C@H](C)[C@H](NC(=O)CNC(=O)[C@@H](NC(=O)[C@H](CCCNC(=N)N)NC(=O)[C@H](CO)NC(=O)[C@H](Cc1c[nH]cn1)NC(=O)[C@H](CCCNC(=N)N)NC(=O)[C@H](CS)NC(=O)CNC(=O)[C@@H](NC(=O)[C@H](CCCNC(=N)N)NC(=O)[C@H](Cc1ccccc1)NC(=O)[C@H](Cc1c[nH]cn1)NC(=O)[C@@H](NC(=O)[C@H](Cc1ccccc1)NC(=O)[C@H](CC(C)C)NC(=O)[C@H](CC(C)C)NC(=O)[C@H](CCC(N)=O)NC(=O)[C@H](CCC(N)=O)NC(=O)[C@H](CC(C)C)NC(=O)[C@@H](NC(=O)[C@H](CCCNC(=N)N)NC(=O)[C@@H](NC(=O)[C@H](CC(C)C)NC(=O)[C@H](C)NC(=O)[C@H](CCC(=O)O)NC(=O)[C@@H](NC(=O)CNC(=O)[C@@H](NC(=O)[C@H](Cc1c[nH]c2ccccc12)NC(=O)[C@@H](NC(=O)[C@@H](N)CC(=O)O)[C@@H](C)O)[C@@H](C)O)C(C)C)[C@@H](C)CC)[C@@H](C)CC)[C@@H](C)CC)[C@@H](C)CC)[C@@H](C)CC)C(=O)N[C@H](C(=O)N[C@@H](CCC(N)=O)C(=O)N[C@@H](CCC(N)=O)C(=O)N[C@@H](CCCNC(=N)N)C(=O)N[C@@H](CCCNC(=N)N)C(=O)N[C@H](C(=O)N[C@@H](CCCNC(=N)N)C(=O)N[C@@H](CC(N)=O)C(=O)NCC(=O)N[C@@H](C)C(=O)N[C@@H](CO)C(=O)N[C@@H](CCCCN)C(=O)N[C@@H](CO)C(=O)O)[C@@H](C)O)[C@@H](C)CC		JC-1 flow cytometry	purified mouse mitochondria	1 µM, 1 min	low membrane potential mitochondria	25%
CC[C@H](C)[C@H](NC(=O)[C@H](CCCCN)NC(=O)[C@H](CCCCN)NC(=O)[C@H](CC(C)C)NC(=O)[C@H](Cc1c[nH]c2ccccc12)NC(=O)CN)C(=O)NCC(=O)N[C@@H](CCCCN)C(=O)N[C@@H](CCCCN)C(=O)N[C@H](C(=O)N[C@@H](CCC(=O)O)C(=O)N[C@@H](CCCNC(=N)N)C(=O)N[C@H](C(=O)NCC(=O)N[C@@H](CCC(N)=O)C(=O)N[C@@H](Cc1c[nH]cn1)C(=O)N[C@H](C(=O)N[C@@H](CCCNC(=N)N)C(=O)N[C@@H](CC(=O)O)C(=O)N[C@@H](C)C(=O)N[C@H](C(=O)N[C@H](C(=O)N[C@@H](CCC(N)=O)C(=O)N[C@H](C(=O)N[C@H](C(=O)NCC(=O)N[C@H](C(=O)N[C@@H](C)C(=O)N[C@@H](CCC(N)=O)C(=O)N[C@@H](CCC(N)=O)C(=O)N[C@@H](C)C(=O)N[C@@H](C)C(=O)N[C@@H](CC(N)=O)C(=O)N[C@H](C(=O)N[C@@H](C)C(=O)N[C@@H](C)C(=O)N[C@H](C(=O)N[C@@H](CC(C)C)C(=O)N[C@@H](CCCCN)C(N)=O)[C@@H](C)O)C(C)C)C(C)C)[C@@H](C)CC)[C@@H](C)O)[C@@H](C)CC)[C@@H](C)O)[C@@H](C)O)C(C)C)[C@@H](C)CC	Klebsiella pneumoniae		DSM 30104, CAMHB with 10% mouse serum	150 mM NaCl	MIC	4 µg/mL (≈ 0.952 µM)
CC(C)CC(C(=O)N1CC2(CC1C#N)C(=O)Nc1ccccc12)N(C)C(=O)c1cc2c(F)cc(F)c(F)c2[nH]1 (stereo not shown)	pangolin coronavirus	viral replication		3 µM	inhibition	100%
O=C(NCc1ccc(F)cc1F)c1cn2ccn(CCCCCCO)c(=O)c2c(O)c1=O	human immunodeficiency virus 1	single-round vector infection	integrase G140S/Q148H		EC50	295 ± 19 nM
CC[C@H](C)[C@H](NC(=O)[C@H](CC(C)C)NC(=O)[C@H](CCCCN)NC(=O)[C@@H](N)CCCCN)C(=O)N[C@H](C(=O)N[C@@H](Cc1ccccc1)C(=O)N[C@H](C(=O)N1CCC[C@H]1C(=O)N[C@@H](CCCCN)C(=O)N[C@@H](CCCCN)C(=O)N[C@H](C(=O)N[C@@H](CCCNC(=N)N)C(=O)N[C@@H](CCC(=O)O)C(=O)N[C@@H](CCCCN)C(=O)N[C@@H](CCCCN)C(=O)N[C@@H](CCCCN)C(=O)N[C@@H](CCC(=O)O)C(=O)N[C@@H](CS)C(=O)N[C@@H](CC(C)C)C(=O)N[C@H](C(=O)O)C(C)C)[C@@H](C)O)[C@@H](C)CC)[C@@H](C)O	TTX-sensitive sodium channel (mouse)	resurgent sodium current, open-channel blocker, whole-cell patch clamp	mouse hippocampal CA3 neurons	200 µM intracellular, 22 °C, step to +30 mV, 10 ms, added: repolarisation to -30 mV	decay time constant	5.9 ± 0.6 ms
COc1cccc(NC(=S)NNC(=O)c2ccccn2)n1	Huh-7	pseudovirus entry		added: MERS-CoV spike pseudovirus	EC50	190 nM
CC(C)N1CCn2cc(C(=O)NCc3ccc(F)cc3F)c(=O)c(O)c2C1=O	HIV-1	viral replication, single-round vector infection	IN E138K/Q148K		EC50	62.5 ± 8 nM
CCCCCCCCCCCCCCCC(=O)N[C@@H](CCC(=O)NCCOCCOCCC(=O)NCCOCCOCCC(=O)NCCCC[C@H](NC(=O)[C@H](CC(=O)O)NC(=O)[C@H](CC(C)C)NC(=O)[C@H](Cc1ccc(O)cc1)NC(=O)[C@H](CCCCN)NC(=O)[C@H](CO)NC(=O)[C@H](Cc1ccc(O)cc1)NC(=O)[C@H](CC(=O)O)NC(=O)[C@H](CO)NC(=O)[C@@H](NC(=O)[C@H](Cc1ccccc1)NC(=O)[C@@H](NC(=O)CNC(=O)[C@H](CCC(N)=O)NC(=O)[C@@H](CO)NC(=O)[C@@H](N)Cc1c[nH]cn1)[C@@H](C)O)[C@@H](C)O)C(=O)N[C@@H](CCCNC(=N)N)C(=O)N[C@@H](CCCNC(=N)N)C(=O)N[C@@H](C)C(=O)N[C@@H](CCC(N)=O)C(=O)N[C@@H](CC(=O)O)C(=O)N[C@@H](Cc1ccccc1)C(=O)N[C@H](C(=O)N[C@@H](CCC(N)=O)C(=O)N[C@@H](Cc1c[nH]c2ccccc12)C(=O)N[C@@H](CC(C)C)C(=O)N[C@@H](CC(C)C)C(=O)N[C@@H](CC(N)=O)C(=O)N[C@H](C(=O)NCC(=O)NCC(=O)N1CCC[C@H]1C(=O)N[C@@H](CO)C(=O)N[C@@H](CO)C(=O)NCC(=O)N[C@@H](C)C(=O)N1CCC[C@H]1C(=O)N1CCC[C@H]1C(=O)N1CCC[C@H]1C(=O)N[C@@H](CO)C(N)=O)[C@@H](C)O)C(C)C)C(=O)O		histology	Sprague-Dawley rat ANIT model	20 and 40 µg/kg every 2 days	liver fibrosis	decreased

Some of these lines once more:
Structure (SMILES)	tested on	assay	system	conditions	endpoint	result
CC[C@H](C)[C@H](NC(=O)CNC(=O)[C@@H](NC(=O)[C@H](CCCNC(=N)N)NC(=O)[C@H](CO)NC(=O)[C@H](Cc1c[nH]cn1)NC(=O)[C@H](CCCNC(=N)N)NC(=O)[C@H](CS)NC(=O)CNC(=O)[C@@H](NC(=O)[C@H](CCCNC(=N)N)NC(=O)[C@H](Cc1ccccc1)NC(=O)[C@H](Cc1c[nH]cn1)NC(=O)[C@@H](NC(=O)[C@H](Cc1ccccc1)NC(=O)[C@H](CC(C)C)NC(=O)[C@H](CC(C)C)NC(=O)[C@H](CCC(N)=O)NC(=O)[C@H](CCC(N)=O)NC(=O)[C@H](CC(C)C)NC(=O)[C@@H](NC(=O)[C@H](CCCNC(=N)N)NC(=O)[C@@H](NC(=O)[C@H](CC(C)C)NC(=O)[C@H](C)NC(=O)[C@H](CCC(=O)O)NC(=O)[C@@H](NC(=O)CNC(=O)[C@@H](NC(=O)[C@H](Cc1c[nH]c2ccccc12)NC(=O)[C@@H](NC(=O)[C@@H](N)CC(=O)O)[C@@H](C)O)[C@@H](C)O)C(C)C)[C@@H](C)CC)[C@@H](C)CC)[C@@H](C)CC)[C@@H](C)CC)[C@@H](C)CC)C(=O)N[C@H](C(=O)N[C@@H](CCC(N)=O)C(=O)N[C@@H](CCC(N)=O)C(=O)N[C@@H](CCCNC(=N)N)C(=O)N[C@@H](CCCNC(=N)N)C(=O)N[C@H](C(=O)N[C@@H](CCCNC(=N)N)C(=O)N[C@@H](CC(N)=O)C(=O)NCC(=O)N[C@@H](C)C(=O)N[C@@H](CO)C(=O)N[C@@H](CCCCN)C(=O)N[C@@H](CO)C(=O)O)[C@@H](C)O)[C@@H](C)CC		JC-1 flow cytometry	purified mouse mitochondria	1 µM, 1 min	low membrane potential mitochondria	25%
